Published values of several laboratories.
Each numbered part is a random draw from the data of one study; scales do not carry over between parts. Positions count from the first letter of the parent shown.

Set 1 — method: RNA Bind-n-Seq; molecule type: RNA; medium: in vitro; concentration: not given; baseline: input RNA pool; direction: higher = stronger binding
Target: RING finger protein unkempt homolog, zinc fingers 1-6, GST-SBP tag (UNK, Homo sapiens, UniProt Q9C0B0, residues 30-357)
UniProt Q9C0B0, sequence (30-357, looked up): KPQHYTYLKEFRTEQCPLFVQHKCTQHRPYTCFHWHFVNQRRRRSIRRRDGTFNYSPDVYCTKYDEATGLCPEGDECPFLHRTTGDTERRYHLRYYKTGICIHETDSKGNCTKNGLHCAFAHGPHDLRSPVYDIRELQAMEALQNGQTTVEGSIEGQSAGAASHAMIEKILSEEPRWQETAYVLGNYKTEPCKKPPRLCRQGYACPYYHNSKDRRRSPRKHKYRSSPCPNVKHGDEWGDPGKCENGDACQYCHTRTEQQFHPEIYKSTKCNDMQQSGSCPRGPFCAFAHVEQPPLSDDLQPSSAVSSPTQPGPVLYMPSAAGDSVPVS
Setting: RNA with constant flanks, human and mouse sites, ends assumed
Shared flanks, not repeated: GGGAGUUCUACAGUCCGACGAUC … CAACAGAGGAUUGAGCAUCA
Sequence	bound/input enrichment [ratio]
GAGGAUGCUGCCUCCUACGUUAGAAAGGUUAUUCCAAAAGAUUAUAAGACAAUGGCUGCUUUAGCCAAGGCCAUCGAAAAGAAUGUGCUGUUUUCACACCUUGAUGAUAACGAGAGAAGU	2.57
CCUCGUACAAAUGGCAUGUGUUCAGUAUGCUAUAAAGAACAUCUUCAAAGACAGAAUAGUAGUAAUGGUAGAAUAAGCCCACCUGCAACCUCUGUCAGUAGUCUGUCUGAAUCUUUACCA	0.641
AAUUCCAUUGCCAACUUUUUCCGCUUGUUAUCUCAGGGGGGUGGAAAAAUCAAGGUUGAGAUUCUGAAAAUACUUUCAAACUUUGCUGAAAAUCCGGACAUGCUAAAGAAACUUCUCGGU	0.258
UCCGCGGAAGUCCCCGAGGCAGCGUCUGCGGAGGAGCAAAAGGAAAUGGAAGAUAAAGUAACUAGUCCAGAGAAAGCUGAAGAAGCAAAGUUAAAGGCAAGGUAUCCUCACUUGGGACAA	0.417
UAUGGUUUUGAGAAGCCCUCUGCCAUCCAGCAGCGAGCCAUUCUACCUUGUAUCAAGGGUUAUGAUGUGAUUGCUCAAGCCCAAUCUGGGACUGGGAAAACGGCCACAUUUGCCAUAUCG	0.221
UGUAGAGCGAAUGUAUACCUGCUUCCCACAGGGGAGAUAGUUUAUUUUAUCGCCUCAGUGGUAGUCCUGUUUAAUUAUGAGGAGAGGACUCAGCGACACUACCUGGGUCAUACAGACUGU	0.942
UGUUUCUUUUGCUGGUGAGGUUCUUUUGUUUUUUGUUUUGGUUGUUUUUUUUUUGUUUGUUUGUUUCUAAUUGGGGCAGAUUUGGGCUCCCCAUGCAGCCCUGCUGGCCUGGUGUUCCCU	3.71
UCUGAUGUCUCCCAGAUGAAUGAUAGACUGGGAGAAGAUGAAUCCUUGCUAAUGAAAUUAUAUAGCUUCCUCCUAAACGAUUCCCCUUUGAAUCCACUACUUGCCAGUUUCUUCAGCAAG	0.271
GUGUUGAACUUCACAGCCUUGCUCAUUGAGUACAGCUUUUCCCGGCAUCUGUACAGUUCCAUAGAGCAUUUGACAACUUUAUUGGCUUCCUCUGAUAUGCAAGUGGUGCUGGCAGUCCUC	0.642
AAACUAAAUGGAACCAUGUGCUAAUUUUUCACAAUUAUUGACCUGUAUUGAUUGCCACUGUAGUUUGGUAUUUCCCUUUACUUUGGUGGCCUGCUUCCCUCAUGCCCUGGAAUACAACUC	0.317
UUGCUGUCUAUUUGUUCCCUUUUGACAGACUGCAACCCUGCGGAUCCUCUGGUUGGAAGCAUAGCCACUCAGUAUUUGACCAACAGAGCAGAACACGACAGGAUAGCCAGACAGUGGACC	0.184

Set 2 — method: DHFR PCA, deep sequencing; medium: yeast; added: (+)-ABA 0.0091 µM; baseline: wild-type fitted maximum; direction: higher = stronger binding
Target: ABI1, truncated, D143A, DHFR fusion (Arabidopsis thaliana)
Setting: methotrexate growth selection, single substitutions
Starting sequence: PYL1, truncated, DHFR fusion (Arabidopsis thaliana); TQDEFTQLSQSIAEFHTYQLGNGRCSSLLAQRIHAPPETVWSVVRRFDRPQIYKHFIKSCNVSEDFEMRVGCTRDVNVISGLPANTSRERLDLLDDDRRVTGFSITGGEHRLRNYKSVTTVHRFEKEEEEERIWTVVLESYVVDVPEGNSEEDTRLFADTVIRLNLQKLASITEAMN; partner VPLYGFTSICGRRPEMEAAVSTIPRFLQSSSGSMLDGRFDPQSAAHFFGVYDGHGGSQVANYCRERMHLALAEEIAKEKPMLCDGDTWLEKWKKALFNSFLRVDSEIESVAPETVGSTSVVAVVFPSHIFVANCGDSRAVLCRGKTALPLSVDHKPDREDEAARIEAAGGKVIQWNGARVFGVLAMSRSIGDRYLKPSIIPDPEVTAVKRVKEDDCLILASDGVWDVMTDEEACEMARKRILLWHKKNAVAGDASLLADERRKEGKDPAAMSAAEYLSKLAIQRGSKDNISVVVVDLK
Variant	relative binding score
S59R	2.74%
S27Y	5.92%
R69H	6.25%
V161I	57.3%
D92P	-2.78%
V145A	-1.67%
E64S	34.8%
L28F	2.07%
R99I	0.925%
H34F	25.9%
E64Y	4.79%
T6N	38.1%

Set 3 — target: CCND1, cyclin fold, Cln2 fusion (human); method: yeast growth competition, sequencing; medium: yeast; setting: weak parent motif; baseline: not given; direction: higher = stronger binding
Starting sequence: CDC25A docking peptide (human); PPHRRRLLFACSP
Variant	normalised enrichment score
A10R	0.391
H3I	0.0965
C11G	0.141
L7P	-0.216
C11N	-0.448
L8V	0.0997
L7H	-0.11
P1H	0.427
R4P	-0.0169
R6A	-0.0705
H3K	-0.607
A10C	-0.123

Other studies, line by line
Molecule	target	test	test system	setting	how to read	endpoint	result
PhoQ, residues 284 288 289 292 302 303 AMDMFI	PhoP, residues 12 14 15 18 19 IQFRS (Escherichia coli, UniProt P23836)	Sort-seq, refers to: YFP reporter	E. coli	PhoQ-PhoP variant library, added: 10 µM Mg2+	baseline: high Mg2+ state, higher = stronger signaling	fold induction	1.2

Repeated from above (set 1):
Sequence	bound/input enrichment [ratio]
AAUUCCAUUGCCAACUUUUUCCGCUUGUUAUCUCAGGGGGGUGGAAAAAUCAAGGUUGAGAUUCUGAAAAUACUUUCAAACUUUGCUGAAAAUCCGGACAUGCUAAAGAAACUUCUCGGU	0.258
UCCGCGGAAGUCCCCGAGGCAGCGUCUGCGGAGGAGCAAAAGGAAAUGGAAGAUAAAGUAACUAGUCCAGAGAAAGCUGAAGAAGCAAAGUUAAAGGCAAGGUAUCCUCACUUGGGACAA	0.417
UAUGGUUUUGAGAAGCCCUCUGCCAUCCAGCAGCGAGCCAUUCUACCUUGUAUCAAGGGUUAUGAUGUGAUUGCUCAAGCCCAAUCUGGGACUGGGAAAACGGCCACAUUUGCCAUAUCG	0.221
